Assay results from different studies.
Every numbered part comes from another study and shows a few of its results, in no order. Changes are numbered by the printed parent chain.

Block 1
Target: CCND3, cyclin fold, Cln2 fusion (human)
Method: yeast growth competition, sequencing
Matrix: yeast
Setting: weak parent motif
Reference: not given
Reading: higher = stronger binding
Starting sequence: CDKN1B docking peptide (human); PSACRNLFGPVDH
For `PSACRNLYGPVDH [F8Y]`, “normalised enrichment score” read 0.0894.
`PSACRNLFGPVHH [D12H]` — result for “normalised enrichment score”: 0.134.
Under “normalised enrichment score”, `PSTCRNLFGPVDH [A3T]` is recorded as 0.0719.
`PSACINLFGPVDH [R5I]`: “normalised enrichment score” 0.138.
For `PSACRNLFGTVDH [P10T]`, “normalised enrichment score” read 0.16.
Under “normalised enrichment score”, `PSACRNSFGPVDH [L7S]` is recorded as 0.113.
For `PSACRNLFRPVDH [G9R]`, “normalised enrichment score” read 0.0324.
`PSACRNLFGPVDV [H13V]`: “normalised enrichment score” 0.132.
`PHACRNLFGPVDH [S2H]`: “normalised enrichment score” 0.136.
For `PSACRNLFGLVDH [P10L]`, “normalised enrichment score” read 0.176.
`PSACRRLFGPVDH [N6R]`: “normalised enrichment score” 0.0528.
`PSACRNLFGPVAH [D12A]`: “normalised enrichment score” 0.185.
For `PSACRNQFGPVDH [L7Q]`, “normalised enrichment score” read 0.0899.
Under “normalised enrichment score”, `PSACRNLFGPVDS [H13S]` is recorded as 0.0251.
`PSACRNLFGPVDF [H13F]` — result for “normalised enrichment score”: 0.125.
Under “normalised enrichment score”, `PSACRNLKGPVDH [F8K]` is recorded as 0.121.
Under “normalised enrichment score”, `PSAYRNLFGPVDH [C4Y]` is recorded as 0.118.
Under “normalised enrichment score”, `WSACRNLFGPVDH [P1W]` is recorded as 0.123.
For `PSNCRNLFGPVDH [A3N]`, “normalised enrichment score” read 0.103.
For `PSICRNLFGPVDH [A3I]`, “normalised enrichment score” read 0.113.
`PSADRNLFGPVDH [C4D]`: “normalised enrichment score” 0.111.

Block 2
Target: RING finger protein unkempt homolog, zinc fingers 1-6, SBP tag (UNK, Homo sapiens, UniProt Q9C0B0, residues 30-357)
Sequence of UniProt Q9C0B0 (30-357, looked up): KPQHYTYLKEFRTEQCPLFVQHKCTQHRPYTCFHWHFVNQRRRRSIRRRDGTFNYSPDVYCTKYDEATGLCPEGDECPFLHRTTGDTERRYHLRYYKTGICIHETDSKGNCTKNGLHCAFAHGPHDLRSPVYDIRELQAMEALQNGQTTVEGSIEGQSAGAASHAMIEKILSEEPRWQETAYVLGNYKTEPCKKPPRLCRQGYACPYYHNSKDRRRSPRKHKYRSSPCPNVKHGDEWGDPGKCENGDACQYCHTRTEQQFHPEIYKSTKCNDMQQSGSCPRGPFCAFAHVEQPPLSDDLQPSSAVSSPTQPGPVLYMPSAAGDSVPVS
Method: RNA Bind-n-Seq
Form: RNA
Matrix: in vitro
Concentration: 100 nM
Setting: RNA with constant flanks, ends assumed
Reference: input RNA pool
Reading: higher = stronger binding
Shared flanks, not repeated: GGGAGUUCUACAGUCCGACGAUC … CAACAGAGGAUUGAGCAUCA
With `CCUACAAUAAUGAAAACCUACAGGAAUUUUUUUAUUUUUCAUUUUCCCCUCCGGCAUAUUCCGUAUUUUUCCCCCAGGCAGAUCAUUCUGAGUGUGCGAGUGUGUGUGCACAUGUUACAA` the bound/input enrichment was 0.669 ratio.
For `CUUAAUCCGAGGGCAAUAUAUGUUUCAUAAAGAAGAGUCUUUAUAAUUUUGUUUGUCAGACCGUAUUUUGGAAUUUGUAUAAUAAGGAUGUUCCGAAGCCAUAUAAGUGGCUUUUUUUAA`, the bound/input enrichment was 0.213 ratio.
For `AAACCCCGAUUUCCGAUGUGAUAUUCCGGCUUUCAUUCCAGUUUGUUUUGUUUUUUUGUUCCGAUACCAAUCUUUUAAAUUCUUGCAUUUCCGUAAGAAAGCUAUCUUUUUAUGGAUGUU`, the bound/input enrichment was 0.588 ratio.
With `AUCCCGUCCGGGGUAACCAUUAAUUUAUUUUAUAAAGAAAGGAAAUGCUGAAAGUCGUAUCCGUACUGAGUUCCGUUGGAGAAUUCCGAUAAGUAAGUAUCUUUCCGGUAAUUCUAAAAU` the bound/input enrichment was 0.408 ratio.
The bound/input enrichment of `CAGGGUGGGACCCGGGACCCGCGGCUCAGUGGCCCGCCCGCCACGUCAGCCAAGCCACUUCCGGUCCAUUUUUUAAUUUUAACAGUGCUCUUCCAUCUUGUGCAUAAGCCUGAGAUUUGG` is reported as 0.96 ratio.

Block 3
Target: CRIPT, C-terminal peptide
Method: DHFR complementation, deep sequencing
Matrix: yeast
Setting: single substitutions, model-inferred values
Reference: wild type
Reading: higher = weaker binding
Starting sequence: ERBIN, PDZ domain 1 (human); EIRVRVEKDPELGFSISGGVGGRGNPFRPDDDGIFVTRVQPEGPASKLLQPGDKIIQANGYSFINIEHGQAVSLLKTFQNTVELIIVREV; partner TKNYKQTSV
`S46W`: “binding free energy change” -0.00892 kcal/mol.
`S73K`: “binding free energy change” -0.0389 kcal/mol.
Under “binding free energy change”, `G52N` is recorded as 0.74 kcal/mol.
For `K8T`, “binding free energy change” read 1.27 kcal/mol.
For `G33V`, “binding free energy change” read 0.536 kcal/mol.
`P29C` — result for “binding free energy change”: 0.0211 kcal/mol.
Under “binding free energy change”, `I64C` is recorded as 0.0378 kcal/mol.
For `G13D`, “binding free energy change” read 1.05 kcal/mol.
Under “binding free energy change”, `Y61R` is recorded as -0.013 kcal/mol.
`L75M`: “binding free energy change” 0.385 kcal/mol.
Under “binding free energy change”, `Q50A` is recorded as -0.0459 kcal/mol.
For `D32G`, “binding free energy change” read 0.28 kcal/mol.
For `L84D`, “binding free energy change” read 1.02 kcal/mol.
`R38T`: “binding free energy change” -0.285 kcal/mol.

Block 4
Target: ABI1, truncated, D143A, DHFR fusion (Arabidopsis thaliana)
Method: DHFR PCA, deep sequencing
Matrix: yeast
Setting: methotrexate growth selection, single substitutions
With: (+)-ABA 4.8 µM
Reference: wild-type fitted maximum
Reading: higher = stronger binding
Starting sequence: PYL1, truncated, DHFR fusion (Arabidopsis thaliana); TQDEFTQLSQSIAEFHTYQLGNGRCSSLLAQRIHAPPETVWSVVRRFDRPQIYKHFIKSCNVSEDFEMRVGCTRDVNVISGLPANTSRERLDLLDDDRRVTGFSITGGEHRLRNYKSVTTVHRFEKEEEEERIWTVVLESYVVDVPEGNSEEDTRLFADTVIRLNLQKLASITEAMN; partner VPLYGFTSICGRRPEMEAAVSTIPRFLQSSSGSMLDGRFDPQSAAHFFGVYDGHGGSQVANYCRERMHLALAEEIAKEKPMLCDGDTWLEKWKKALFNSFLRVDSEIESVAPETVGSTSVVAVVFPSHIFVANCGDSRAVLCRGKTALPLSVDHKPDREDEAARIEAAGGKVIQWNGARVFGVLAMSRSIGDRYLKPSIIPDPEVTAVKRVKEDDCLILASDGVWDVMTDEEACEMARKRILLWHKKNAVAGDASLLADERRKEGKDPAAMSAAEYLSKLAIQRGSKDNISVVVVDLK
For `W134T`, “relative binding score” read 91.4%.
`V121F` — result for “relative binding score”: -1.28%.
For `D153C`, “relative binding score” read -0.738%.
`C25P` — result for “relative binding score”: 0.626%.
For `L82Y`, “relative binding score” read 20%.
For `I162G`, “relative binding score” read -9.69%.
For `R132W`, “relative binding score” read 38.2%.
`F47S`: “relative binding score” -3.99%.
For `I172N`, “relative binding score” read 17.1%.
`I33R` — result for “relative binding score”: 4.69%.
Under “relative binding score”, `W134S` is recorded as 88.8%.
`S59H` — result for “relative binding score”: 50%.
Under “relative binding score”, `R123T` is recorded as 68.2%.
Under “relative binding score”, `W41H` is recorded as 5.04%.
`R46D`: “relative binding score” 7.42%.
`I162F` — result for “relative binding score”: -6.39%.

Block 5
Target: Ras GTPase-activating protein-binding protein 1, full length (G3BP1, Homo sapiens, UniProt Q13283)
Sequence of UniProt Q13283 (whole entry, looked up): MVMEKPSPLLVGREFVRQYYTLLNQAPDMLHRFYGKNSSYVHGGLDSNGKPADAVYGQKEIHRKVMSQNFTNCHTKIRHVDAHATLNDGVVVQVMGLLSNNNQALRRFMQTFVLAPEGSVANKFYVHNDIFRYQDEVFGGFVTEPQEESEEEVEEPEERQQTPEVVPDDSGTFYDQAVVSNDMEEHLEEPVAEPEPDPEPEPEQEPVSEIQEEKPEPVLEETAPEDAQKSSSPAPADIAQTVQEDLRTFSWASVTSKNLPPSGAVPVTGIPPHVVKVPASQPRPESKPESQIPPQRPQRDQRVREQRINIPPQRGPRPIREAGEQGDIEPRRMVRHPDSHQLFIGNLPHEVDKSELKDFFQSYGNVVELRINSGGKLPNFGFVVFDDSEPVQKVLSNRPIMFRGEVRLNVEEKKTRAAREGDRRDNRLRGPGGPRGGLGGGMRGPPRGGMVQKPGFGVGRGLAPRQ
Method: RNA Bind-n-Seq
Form: RNA
Matrix: in vitro
Concentration: 200 nM
Setting: whole 134-nt RNA, ends assumed
With: 150 mM LiCl
Reference: input library
Reading: higher = stronger binding
Each molecule: 7-deaza-guanosine replaces G
Shared flanks, not repeated: GGGAGUUCUACAGUCCGACGAUC … UGGAAUUCUCGGGUGUCAAGG
`CUGUGCUACACAUCGUAUGUACCGAAUCGGGGCCCCCCGGGGCCCCCCGGGGCCCCCCGGGAAAGUAUUAUGUUACGCCGUUCGGAUCUG` gave a log2 enrichment of -1.35.
With `UGCGCCAACCUAGGCUUUCUUCUUCCUCUCCUCUUUAUAGGCGGAGUCGAUCUCCCAAAAGGAGAAGGUAGGCCUUCAGUCAUUUGUGAU` the log2 enrichment was -0.388.
`UCAAGUCCUGUGCUACACAUCGUAUGUACCGAAUCGGUUUGGUUUGGUUUUUGGAAAGUAUUAUGUUACGCCGUUCGGAUCUGCACUUCC` has a log2 enrichment of -0.234.
The log2 enrichment of `GCAGGAAGUAAAAACAAAUGGAAAUGCUUCGGAUAGUGGCAGGGGUGGGGGUUGCUAAGGAAAGGGUGGGAUGGGAGUGGGUUAAGAGUU` is reported as 0.111.
With `CAUAGACAACACGCACCCACACAGACACAGAGGGAAGGGGUUGGGAUGGGGACAGGGUGCACAGCAGGGCGGGGUAGGACCCCAGCCCCU` the log2 enrichment was 0.534.
With `GUCCUGUGCUACACAUCGUAUGUACCGAAUCGGUUUUUGGGGUUUUUGGUUUUUGGGGAAAGUAUUAUGUUACGCCGUUCGGAUCUGCAC` the log2 enrichment was -0.612.
The log2 enrichment of `CCUCAAGUCCUGUGCUACACAUCGUAUGUACCGAAUCGGUUGGUUGGUUGGGAAAGUAUUAUGUUACGCCGUUCGGAUCUGCACUUCCAG` is reported as 0.705.
`CCUGUGCUACACAUCGUAUGUACCGAAUCGGAAAAAAAGGGAAAAAAAGGAAAAAAAGGGAAAGUAUUAUGUUACGCCGUUCGGAUCUGC` has a log2 enrichment of -0.111.

Mixed results
The fold induction of `PhoQ, residues 284 288 289 292 302 303 ALAMYF` is reported as 2.24 (PhoP, residues 12 14 15 18 19 VHTVL (Escherichia coli, UniProt P23836); Sort-seq, refers to: YFP reporter; E. coli; PhoQ-PhoP variant library, with: 10 µM Mg2+; reference: high Mg2+ state, higher = stronger signaling).

Excerpt of the above (block 1):
`PSACRNLFGPVDV [H13V]`: “normalised enrichment score” 0.132.
`PHACRNLFGPVDH [S2H]`: “normalised enrichment score” 0.136.
For `PSACRNLFGLVDH [P10L]`, “normalised enrichment score” read 0.176.
`PSACRRLFGPVDH [N6R]`: “normalised enrichment score” 0.0528.
